Experimental data of several laboratories.
Parts stem from different laboratories: compare values within a part only.

Sample 1 — method: RNA Bind-n-Seq; form: RNA; matrix: in vitro; concentration: 365 nM; baseline: no-protein control; reading: higher = stronger binding; quantity: RBNS enrichment (R)
Target: RNA binding protein fox-1 homolog 2, RRM domain, GST-SBP tag (RBFOX2, Homo sapiens, UniProt O43251-10, residues 100-194)
Notes: natural RNA segment, single round, ends assumed
All sequences stand within: GGGAGUUCUACAGUCCGACGAUC … UGGAAUUCUCGGGUGCCAA
Target sequence (chain): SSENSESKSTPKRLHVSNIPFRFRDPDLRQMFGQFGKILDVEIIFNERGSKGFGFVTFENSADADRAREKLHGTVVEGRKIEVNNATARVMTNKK
UUGGGAAGCAGUCGCCUGCCUGGGAAGUGGGUCUGUGUUUUCUCUAACUGCCACAGUGCUAUUUGUUUACCAUCAAAUUGUAUUGGUGUUUCCAGGGCUUGUUGGUACAA: 0.276
AACUGAUAUUCAAAAUAUUAAACAUUUGUUAUUUUGUAUAAACCUUUAAGUAAAAAUAUGCUGUUUUAAUAUUUAAUUUAGUAGAAUUAACAAAAACUUUUUAAUAGUCA: 1.19
GUUAUCUAAGCUUCGUUAAUAGAUUUCUUAAUAUCAUCCAAUGUUUGGUGUUAUCUGCAUUGUUUUUUUUUUUAAAUUGUGGUUGUUCUGAUGUGUGAAAUUUAAGGAAA: 2.07
ACCGCCUAUCACGCCGACUGCUUCCCGAGGCCCCGGGUGGGCUAAGGGGCUGGGUCUGCUUCACCAAUCACCCAACCUGAGUCCCCCAGCUUUACCACAGAGCUGCCAAC: 0.305
UAUUGUUUUUCUAACAUGGCUUCAUUAAACGUUUAAGUAUUUUAAAAAUAUGUAAUAUUUGGACCAGAUGUUGUGAAUAAUAGUAGAGAUAAAGCUAUUUUAUUCUGUAU: 0.402
UGUGCGCCUGCUCGACCCCGGGCCUGAGCAGGGGCGCCAAAUCUCCCACUAUACCUGAGCACCGGGAGCUUCCAGAGCACGCCUGCCUCCCUCCCUCUAGUCUGCAUGUG: 14
GAAUGUAGUCCGUGAAGGGAGUGCCUCUCUGGGACCCCCUGUGUUGUUACAGGCUGUGCAGUGCAACAAUUCCAGCAAAAAUACCCUAUCCCCGCACUUAGUCAUUCGUG: 0.466
CGGCUGCAAGGAGUCUGCAGUGGUAACAGCUUCUCUCUAGCCUGGCUGGCUUUGGUAGGCAAAAGUGAACUUGGAAGUCACAGUGGGAUCAGAGGGGUGUAGGUUGCGAU: 0.634
CUGUGGAAGGAAGUGGCUGUGACUUUAACCACUGGAGAGCGGAGUCUGUGGUGUGGAGAGGGUGUUCACUGUGUAAUCUUGGGCUGUGUGGAGUUGUUCUUAUCACCUUG: 2.01
UGUUGUUUGUAGAAGACCUCACUGGGGUCUCAGAUAAGCAGGUAAAAUAAACCUCAGGGUUUAUCUUGAGGUGCCAGAAGUCCCACUCAUGUUUCACAAGAAACCUCUUA: 0.196
ACUUCGGGGAGAUUGAUUGGAUCAGAGCCAUUGGCUGGCUCUGGCUCUGCUUUUCUGCCUUCAGUUAUCUACAGAACAGCAGGUUUGCCUGAAGUGCAGCCUUCACCAGG: 0.264
AGCAUAACUCAUUUACCUGUAUACUAAAACCCCUGUUGUACUGAUUUUUUUUUAUAAUAAGCCUUUUUACCUCUGUAAAAAUAUAUAUAUAUACAAGUGUAUGAUGUACA: 0.961

Sample 2 — method: universal PBM; form: double-stranded DNA, one strand shown; matrix: in vitro; concentration: not given; reading: higher = stronger binding; quantity: E-score
Target: Sal-like protein 4, full length isoform B (SALL4, Homo sapiens, UniProt Q9UJQ4-2, residues 1-616)
Notes: 8-mer, flanks averaged, mean of replicates
CTTAGGGC: -0.111
CTGCATCA: 0.0368
ACAACGGG: -0.0781
ACATAATC: 0.326
CGCAGGGA: -0.181
CTGCGTTA: -0.0492
GAAGCCGA: -0.226
AGCGCATG: -0.159
TAGTGTCA: 0.131
AGGCCCCC: -0.406
AAGGTAAC: 0.0474
AAGAGCCA: -0.138
ACTATTAC: 0.213
CATACAGC: 0.0393
CGAAGTGA: -0.0484
AGCCCAAC: -0.183
CCCGAAGA: -0.089
ATGCCGCA: -0.0707
TCCTAAAA: 0.065

Sample 3 — method: RNA Bind-n-Seq; form: RNA; matrix: in vitro; concentration: not given; baseline: input RNA pool; reading: higher = stronger binding; quantity: bound/input enrichment
Target: RING finger protein unkempt homolog, zinc fingers 1-6, GST-SBP tag (UNK, Homo sapiens, UniProt Q9C0B0, residues 30-357)
Chain of UniProt Q9C0B0 (30-357, looked up): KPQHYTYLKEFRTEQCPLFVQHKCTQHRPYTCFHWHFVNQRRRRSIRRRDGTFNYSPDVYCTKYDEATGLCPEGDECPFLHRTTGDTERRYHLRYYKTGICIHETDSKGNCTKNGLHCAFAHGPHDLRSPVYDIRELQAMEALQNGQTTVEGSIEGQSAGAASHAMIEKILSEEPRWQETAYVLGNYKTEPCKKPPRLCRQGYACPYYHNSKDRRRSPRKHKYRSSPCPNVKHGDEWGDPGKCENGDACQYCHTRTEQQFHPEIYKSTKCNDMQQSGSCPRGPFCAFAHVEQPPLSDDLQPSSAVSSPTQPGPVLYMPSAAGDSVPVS
Notes: RNA with constant flanks, human and mouse sites, ends assumed
All sequences stand within: GGGAGUUCUACAGUCCGACGAUC … CAACAGAGGAUUGAGCAUCA
AGCUUGAUGUACAGAAAACUGAAAAUAUGUAAUGCUCAGUGAUCUUAUUAUUUAGGAGUGUUUUGACUGAUAUAUUUAAAGAUAGAUUAUAUUCAUGCUGUCUUCUGUUGACUUUGAGAA: 30.5 ratio
AGUGAUUUACUGGAUUUCAGUGCGAUGUUUUCACCUCCUGUGAGCAGUGGGAAAAAUGGACCAACUUCUUUGGCAAGUGGACAUUUUACUGGCUCAAAUGUAGAAGACAGAAGUAGCUCA: 0.227 ratio
GCCCGGAUGAACUUCAGGGCUAAGGAAUAUGAGAGUUUAAUGGAAACCAAAAAUUCUGGCUCUGAUUCACCUUAUAAAGCAAAGCUUCAGCGAUUAGCCAAAGAUCUUCUAAAACAAGUA: 0.251 ratio
AAUAUGGCAUCUUCCUUGCUUGCUAUAGCAGGGGAAGGGAAAAUGCCAGUCUUUUUAAUCUAGCAAGCUUCUCGAUCUUAUAAUUAUUAUUUUUUUAAAUUCUGGUCAUGGAUGCUUCUU: 4.88 ratio
AAGACCAUAAAGUUAUGGAAUACUCUGGGUGUCUGCAAGUACACGGUCCAGGAUGAGAGUCAUUCAGAAUGGGUGUCUUGUGUCCGCUUCUCCCCGAACAGCAGCAACCCUAUCAUCGUC: 0.133 ratio
UUAAUAGGACCAGGGACCAUGUAACUGAGGUGAGGGUUGUAGUAGAUGCUUCCAGUGUCAGUAUGCCUGUUAAUUUUAAGAGCUUCCCUUUCUUGCAGAGAACAAGUCUGCCCAGAUUCC: 0.465 ratio
UUUUUUUCCUUUUUCUUUUAAUUUAAUGCUGUAGAGGGUGACUUGCCAUCGUGAGAGAUUGGUACAUGAUGUGUAAAUUCAGUUCAGCAUAUGUUUCUUCAUUAUGAAACCACUAGCAAU: 3.55 ratio
GAUCCUGGUCUUGUAUUCAUUGUGGUAGAGUGUCCUGAUGAAGGAUUCAUCCUGCCCAUCUGUGAGAACGACACCUUUAAAAGGUACCAGGCAGAGGCUGAUGCACCUGUGGCGCUGGUG: 0.194 ratio
CGAUUAGUUUAAGCUGUUUCAUGUAUUUUACUUUAAACCUUAUUUUGGCAACUUAUCUUGUUAGCAUUAUAAAAACUUACUUAAAAUACUAUUUUACUACAAAACAAAACAUUUAUUACA: 4.6 ratio
GGAGUUUUUUAACUGAUUUAGCCAGGUGGCAAUCAUGAGUGAAUGGAUGAAGAAAGGCCCCUUAGAAUGGCAAGAUUACAUUUACAAAGAGGUCCGAGUGACAGCCAGUGAGAAGAAUGA: 0.567 ratio
AAUUUAUUUGAGACUGGAUUUUAUCACUCGGAGCUAAACCCUAUGAACAUGUGCAGUGAAGAGUCAGAGAGACCAGCAAAAAGAUUGAAAAUGGGCAUUGCCGUCCCUGAAUCCUUUAUG: 0.109 ratio

Sample 4 — method: RNA Bind-n-Seq; form: RNA; matrix: in vitro; concentration: 1 µM; notes: whole 134-nt RNA, ends assumed; added: 150 mM KCl; baseline: input library; reading: higher = stronger binding; quantity: log2 enrichment
Target: Ras GTPase-activating protein-binding protein 1, RRM domain (G3BP1, Homo sapiens, UniProt Q13283)
Chain of UniProt Q13283 (whole entry, looked up): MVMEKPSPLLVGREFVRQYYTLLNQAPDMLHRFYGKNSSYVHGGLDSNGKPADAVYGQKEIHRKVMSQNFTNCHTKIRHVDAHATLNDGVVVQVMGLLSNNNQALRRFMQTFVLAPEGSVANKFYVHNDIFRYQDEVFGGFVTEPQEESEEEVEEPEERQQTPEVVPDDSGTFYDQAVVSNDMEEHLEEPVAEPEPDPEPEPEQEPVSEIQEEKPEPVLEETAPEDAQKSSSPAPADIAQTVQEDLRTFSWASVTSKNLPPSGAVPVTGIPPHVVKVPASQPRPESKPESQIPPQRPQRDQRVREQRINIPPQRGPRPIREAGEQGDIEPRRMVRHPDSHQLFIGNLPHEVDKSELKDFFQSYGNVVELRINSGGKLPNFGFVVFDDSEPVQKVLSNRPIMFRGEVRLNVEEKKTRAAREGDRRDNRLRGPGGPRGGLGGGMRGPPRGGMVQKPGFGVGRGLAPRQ
All sequences stand within: GGGAGUUCUACAGUCCGACGAUC … UGGAAUUCUCGGGUGUCAAGG
GCAGGAAGUAAAAACAAAUGGAAAUGCUUCGAAUAGUGGCAGGGGUGGGGGUUGCUAAGGAAAGGGUGGGAUGGGAGUGGGUAAAGAGUU: 1.49
UCUAUCCUGUCCCUCCACCCCACCCUCCACCUCAAUCCCCUCCCAUCUUCCCCAGACCUACCUCACCUACUAGGACCUGAGGCAGCUCCU: -0.327
UAACUUUAGAGGAGGAUCUGCUGGAUAUGGCAGUGGACGUGGAUUUGGGGAUGGCUAUAAUGGGUAUGGAGGAGGACCUGGAGGUGGCAA: -0.615
UCCUGUGCUACACAUCGUAUGUACCGAAUCAAACCCCCCCAAACCCCCAAAUUUUUAAAAAAGUAUUAUGUUACGCCGUUCGGAUCUGCA: -0.0776
CACAGACAACACGCACCCACACAGACACAGAGGGAAGGGGGUGGGAUGGGGACAGGGUGCACAGCAGGGCGGGGUAGGACCCCAGCCCCU: 0.414
UGGGAGGUGGAUUUUGGUUAUUUUUUUAGCUCAUUUCCAGGGGUGGGAAUUUUUUUUUAAUAUGUGUCAUGAAUAAAGUUGUUUUUGAAA: 1.79
AAGUCCUGUGCUACACAUCGUAUGUACCGAAUCGGGAAAAAGGGAGGGUUUUUGGGAAAGUAUUAUGUUACGCCGUUCGGAUCUGCACUU: 0.645
GGUGCGGCUCUAUGAGUGGACAACAGAGAAGGAGCUGCGCACUGAGUGCAACCACUACAACAACAUCAUGGCCCUCUACCUGAAGACCAA: -0.125
UGGGAGGUGGAUUUUGUUUAUUUUUUUAGCUCAUUUCCAGGGGUGCGAAUUUUUUUUUAAUAUGUGUCAUGAAUAAAGUUGUUUUUGAAA: 1.3
UCCUGUGCUACACAUCGUAUGUACCGAAUCGGGGAAAAAAGGGAAAAAAGGAAAAAAGGAAAGUAUUAUGUUACGCCGUUCGGAUCUGCA: 0.104
ACCAUGCAGGUGGGCAUCUUUGGGAAGUGGGGCAAGGGGGGGAUAGGGAGGGGGGUAACAGUUUGGGAACAGGUGGUCCCAGGUCGUUUC: 0.987
UGGCCCUGGUGGCAUGCGGGGAGGAAGAGGUGGCCUCAUGGAUCGUGGUGGUCCCGGUGGAAUGAUCAGAGGUGGCCGUGGUGGAGACAG: 0.817
CCUCAAGUCCUGUGCUACACAUCGUAUGUACCGAAUCGGUUGGGUUGGUUGGGAAAGUAUUAUGUUACGCCGUUCGGAUCUGCACUUCCA: -0.275
CCUCAAGUCCUGUGCUACACAUCGUAUGUACCGAAUCGGUUGGUUGGGUUGGAAAGUAUUAUGUUACGCCGUUCGGAUCUGCACUUCCAG: -0.256

Some of these lines once more (sample 4):
UGGGAGGUGGAUUUUGUUUAUUUUUUUAGCUCAUUUCCAGGGGUGCGAAUUUUUUUUUAAUAUGUGUCAUGAAUAAAGUUGUUUUUGAAA: 1.3
UCCUGUGCUACACAUCGUAUGUACCGAAUCGGGGAAAAAAGGGAAAAAAGGAAAAAAGGAAAGUAUUAUGUUACGCCGUUCGGAUCUGCA: 0.104
UGGCCCUGGUGGCAUGCGGGGAGGAAGAGGUGGCCUCAUGGAUCGUGGUGGUCCCGGUGGAAUGAUCAGAGGUGGCCGUGGUGGAGACAG: 0.817
ACCAUGCAGGUGGGCAUCUUUGGGAAGUGGGGCAAGGGGGGGAUAGGGAGGGGGGUAACAGUUUGGGAACAGGUGGUCCCAGGUCGUUUC: 0.987
CCUCAAGUCCUGUGCUACACAUCGUAUGUACCGAAUCGGUUGGGUUGGUUGGGAAAGUAUUAUGUUACGCCGUUCGGAUCUGCACUUCCA: -0.275
UCCUGUGCUACACAUCGUAUGUACCGAAUCAAACCCCCCCAAACCCCCAAAUUUUUAAAAAAGUAUUAUGUUACGCCGUUCGGAUCUGCA: -0.0776
